Published values collected from several papers.
Protocols differ between the studies behind these lines. ± gives the spread as reported.
Cell line: HUVEC

| Structure (SMILES) | assay | conditions | endpoint | result |
| --- | --- | --- | --- | --- |
| C[C@@H](c1ccn(Cc2ccc(Cl)cc2Cl)n1)[C@](O)(Cn1cnnn1)c1ccc(F)cc1F | CCK-8 | 1 to 64 µg/mL, 24 h | viability | not toxic |
| Oc1ccccc1/C=N/NC(=S)Nc1cc(C(F)(F)F)cc(C(F)(F)F)c1 | cell growth or viability, CCK-8 | 24 h | IC50 | 15.9 µg/mL |
| C[C@@H]1Cc2cc(C(=O)C3=C(O)C(=O)N(CCc4ccccc4)[C@@H]3c3cccc(Oc4ccccc4)c3)ccc2O1 (mixture of isomers) | MTT | up to 100 µM, 24 h, serum-free, 0.05% BSA | viability | > 75% |
| CC(C)(C)n1cc(CN(Cc2cn(CC(=O)O)nn2)Cc2cn(C(C)(C)C)nn2)nn1 | cellular uptake, LC-ESI-MS/MS | 200 µM, 10 min, with: CuSO4 100 µM and ascorbate 500 µM | intracellular concentration | 1 ± 0.1 µM |
| O=C(Cc1ccc(OCc2ccccc2)cc1)NC1(C(=O)O)CCN(C(=O)c2ccc(-c3cccc(Cl)c3)cc2)CC1 | cytotoxicity | 3 days | IC50 | > 100 µM |
| CC(C)(C)n1cc(CN(Cc2cn(CCOCCOCCOCCOCCOCCO)nn2)Cc2cn(C(C)(C)C)nn2)nn1 | cellular uptake, LC-ESI-MS/MS | 200 µM, 10 min, with: CuSO4 100 µM and ascorbate 500 µM | intracellular concentration | 10.8 ± 0.3 µM |
| C[C@@H]1Cc2cc(C(=O)C3=C(O)C(=O)N(CCc4ccccc4)[C@@H]3c3cccc(Br)c3)ccc2O1 | MTT | up to 100 µM, 24 h, serum-free, 0.05% BSA | viability | > 75% |
| Oc1ccccc1/C=N/NC(=S)Nc1ccccc1 | cell growth or viability, CCK-8 | 24 h | IC50 | > 16 µg/mL |
| CC(=O)NCCC(=O)N[C@@H](CCCNC(=N)N)C(=O)NCC(=O)N[C@@H](CCC(=O)O)C(=O)N[C@@H](Cc1ccccc1)C(=O)N[C@H](C(=O)NCC(=O)O)C(C)C | LC-MS | 5000 µM, 48 h, glycine-terminated peptide | peptide remaining | 26% |
| CNC(=O)c1c(C)oc2cc(Oc3ncnc4cc(OC)c(OCCCCCCC(=O)NO)cc34)ccc12 | cell growth or viability, ATP luminescence | 72 h | IC50 | 3.44 µM |

For quick reference, copied from above:
| Structure (SMILES) | assay | conditions | endpoint | result |
| --- | --- | --- | --- | --- |
| C[C@@H]1Cc2cc(C(=O)C3=C(O)C(=O)N(CCc4ccccc4)[C@@H]3c3cccc(Br)c3)ccc2O1 | MTT | up to 100 µM, 24 h, serum-free, 0.05% BSA | viability | > 75% |
